Published values pooled from the literature.
Protocols differ between the studies behind these lines. ± marks the error that the study gave. Converted amounts (≈) assume the structure as drawn.
Sequence of UniProt P08684 (whole entry, looked up): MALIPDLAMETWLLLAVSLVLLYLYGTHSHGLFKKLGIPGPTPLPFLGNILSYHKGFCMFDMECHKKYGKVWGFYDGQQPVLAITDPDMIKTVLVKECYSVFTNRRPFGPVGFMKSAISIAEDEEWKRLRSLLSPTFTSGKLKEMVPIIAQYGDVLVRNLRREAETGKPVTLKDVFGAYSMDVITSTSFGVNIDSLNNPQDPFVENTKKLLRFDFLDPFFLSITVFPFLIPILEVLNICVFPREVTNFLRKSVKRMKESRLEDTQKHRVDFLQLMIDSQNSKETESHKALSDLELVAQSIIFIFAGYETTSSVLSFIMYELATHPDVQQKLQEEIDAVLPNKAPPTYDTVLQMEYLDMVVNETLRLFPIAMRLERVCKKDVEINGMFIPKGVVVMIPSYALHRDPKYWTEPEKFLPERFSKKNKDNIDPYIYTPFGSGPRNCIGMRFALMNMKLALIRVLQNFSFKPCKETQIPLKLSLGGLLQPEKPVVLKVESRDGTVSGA
Sequence of UniProt P25929 (whole entry, looked up): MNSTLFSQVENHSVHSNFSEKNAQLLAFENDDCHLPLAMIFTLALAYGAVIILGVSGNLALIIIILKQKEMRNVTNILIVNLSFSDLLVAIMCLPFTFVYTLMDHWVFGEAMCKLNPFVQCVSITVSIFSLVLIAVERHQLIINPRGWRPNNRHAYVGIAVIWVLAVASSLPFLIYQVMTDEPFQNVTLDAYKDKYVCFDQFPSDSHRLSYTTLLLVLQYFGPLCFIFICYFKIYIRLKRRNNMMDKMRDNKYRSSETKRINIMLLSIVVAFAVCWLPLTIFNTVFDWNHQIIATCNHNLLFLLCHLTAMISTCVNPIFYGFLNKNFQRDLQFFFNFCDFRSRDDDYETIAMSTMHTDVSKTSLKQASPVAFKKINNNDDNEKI

| Compound | target or system | test | test system | setting | how to read | measurement | value |
| --- | --- | --- | --- | --- | --- | --- | --- |
| C=CC(=O)Nc1cc(Nc2nccc(-c3c(-c4cccc(F)c4)n(C)c4ccccc34)n2)c(OC)cc1N(C)CCN(C)C | H1975 | Western blot, refers to: Bcl-2 |  | concentration not given, 24 h |  | protein level | decreased |
| COc1cc(CNC(=O)C[C@H](C)CCC=C(C)C)ccc1OCc1cn(-c2ccccc2Cl)nn1 | SW-620 | SRB |  | 10 µM, 48 h |  | growth percent | 80.2% |
| CCN(CC)CC(=O)Nc1cccc(-n2cc(-c3ccc4ccc(-c5cn(-c6cccc(NC(=O)CN(CC)CC)c6)nn5)cc4c3)nn2)c1 | RCC4 | qRT-PCR, refers to: HIF-1α |  | 5 x IC50, 6 h | baseline: untreated | mRNA level | 4.2% |
| COc1cc(CNC(=O)C[C@H](C)CCC=C(C)C)ccc1OCc1cn(-c2ccc(Cl)c(Cl)c2)nn1 | OVCAR-3 ovarian cancer cells | SRB |  | 10 µM, 48 h |  | growth percent | 60.1% |
| O=Cc1c(O)ccc2ccccc12 | HUVEC | RNA sequencing, refers to: NGFR |  | 75 µM, 24 h | baseline: DMSO | log2 fold change | 3.41 |
| C/C(=N/O)c1ccc(NS(=O)(=O)c2cccc(/C=C/C(=O)NO)c2)cc1 | MOPC-315 | cell growth |  | 24 h | baseline: belinostat | relative potency | 0.148 |
| [64Cu+2].c1ccc(CNCc2ccc(CN3CCCN4CCNCCCN(CC4)CC3)cc2)nc1 | CXCR4 |  | NOD/SCID mouse, U87 and U87-stb-CXCR4 xenografts, blood | iv, 90 min, no blocking dose, ex vivo |  | tissue uptake | 1.44 ± 0.1 %ID/g |
| COc1ccc2cc(NC(=O)c3cc(-c4cccnc4)nc4ccccc34)ccc2c1 | Cytochrome P450 3A4 (CYP3A4, Homo sapiens, UniProt P08684) | substrate, refers to: metabolite M1 | baculosomes |  |  | kcat/Km | 12800 M⁻¹ s⁻¹ |
| CC(=O)N[C@H](C(=O)N[C@H](C(=O)N[C@@H](CCCNC(=N)N)C(=O)N1Cc2ccccc2C[C@H]1C(=O)N[C@@H](Cc1ccccc1)C(N)=O)C1CCCCC1)C(C)C | MBP-specific BC-3 T cells | Bio-Plex multiplex, refers to: IL-9 |  | 200 µg/mL, 24 h, added: MBP87-99 antigen |  | cytokine level | 27.3 ± 9.1 pg/mL |
| CCC(=C(c1ccc(Cl)cc1)c1ccc(OCCCN(C)C)cc1)c1ccc(Cl)cc1 | NCI-60 tumour cell lines |  |  | 10 µM, mean over cell lines |  | growth inhibition | 5.92% |
| CC(=O)OC[C@H]1O[C@@H](Sc2sc(C(=O)c3ccc(Br)cc3)c(N)c2-c2nc3ccccc3s2)[C@H](OC(C)=O)[C@@H](OC(C)=O)[C@@H]1OC(C)=O | MDA-MB-231 breast cancer | SRB |  | 10 µM, 48 h |  | growth percent | 84.1% |
| COC(=O)[C@H]1[C@H]2CCN(CC[C@]3(O)C(=O)Nc4cc(OC)ccc43)C[C@H]2C[C@@H](OC(=O)c2cc(OC)c(OC)c(OC)c2)[C@@H]1OC | NALM-6 | trypan blue count |  | concentration not given, 72 h |  | growth inhibition | no effect |
| CNC(=O)c1ccccc1Oc1nc(Nc2cc(OC)c(OC)c(OC)c2)ncc1Br | C2C12 myotubes |  |  | 10 to 50 µM, 1 h |  | adenylate energy charge | no effect |
| Cc1nc(C)c(C=[N+]([O-])C(C)(C)C)nc1C |  | Western blot, refers to: PGC-1α | primary midbrain neurons, rat | 100 µM, added: 20 µM MPP+ |  | protein level increase | 37.4% |
| COc1cc(CCC(C)=O)ccc1O | mouse mAb 1-G12 | antibody binding, indirect competitive ELISA |  | added: coating antigen 1-OVA |  | IC50 | 1.02 µg/mL (≈ 5.25 µM) |
| [64Cu+2].c1cnc(CNCc2ccc(CN3CCCN4CCNCCCN(CC4)CC3)cc2)nc1 | CXCR4 |  | NOD/SCID mouse, U87 and U87-stb-CXCR4 xenografts, stomach | iv, 90 min, ex vivo, added: AMD3465 25 mg/kg sc before tracer |  | tissue uptake | 0.91 ± 0.41 %ID/g |
| CCCCC/C=C/C(=O)CCc1ccc(O)c(OC)c1 | mouse mAb 1-G12 | antibody binding, indirect competitive ELISA |  | added: coating antigen 2-OVA |  | IC50 | > 4 µg/mL |
| CC(=O)[O-].O.O.[O-]c1ccc(Br)cc1C=NCCN1CCOCC1.[Zn+2] | Shigella flexneri |  |  | 20 µL of 100 µM per disc |  | inhibition zone diameter | 29 mm |
| COc1cc(CNC(=O)C[C@H](C)CCC=C(C)C)ccc1OCc1cn(-c2ccccc2[N+](=O)[O-])nn1 | OVCAR-3 ovarian cancer cells | SRB |  | 10 µM, 48 h |  | growth percent | 80.3% |
| CCOC(=O)CNC(=O)/N=C(/N)NCCC[C@@H](NC(=O)C(c1ccccc1)c1ccccc1)C(=O)NCc1ccc(O)cc1 | Neuropeptide Y receptor type 1 (NPY1R, Homo sapiens, UniProt P25929) | inositol phosphate, antagonist |  |  |  | Kb | 0.00014 µM |
| COc1ccc(NC(=O)COc2ccc(/C=C/C(C)=N/O)cc2OC)cc1 | SH-SY5Y | flow cytometry |  | 5 µM, added: amyloid beta 10 µM |  | TNF-α expressing cells | 35.3% |
| COc1ccc(-c2cn([C@H]3C[C@H](O)[C@@H](CO)O3)c3ncnc(N)c23)cc1 | HEK | cytotoxicity |  |  |  | EC50 | 104 ± 14 µM |
| COc1cc(CNC(=O)C[C@H](C)CCC=C(C)C)ccc1OCc1cn(-c2ccccc2)nn1 | Malme-3M melanoma cells | SRB |  | 10 µM, 48 h |  | growth percent | 88.8% |
| Cn1c(=O)oc2ccc(-c3ccc(CC(C#N)NC(=O)C4CNCCCO4)c(F)c3)cc21 (stereo not drawn) |  |  | human | oral, 20 mg once daily, TEAE, multiple ascending dose |  | urine RBC positive incidence | 11.1% |
| COc1cc(CNC(=O)C[C@H](C)CCC=C(C)C)ccc1O | Malme-3M melanoma cells | SRB |  | 10 µM, 48 h |  | growth percent | 90.3% |
| COc1cc([C@@H]2OC[C@@H]3[C@H]2CO[C@H]3c2cc(OC)c(O)c(OC)c2)cc(OC)c1O | HepG2, palmitic acid-induced insulin resistance |  |  | 10.0 µM, 24 h |  | glucose consumption | 8.25 ± 0.34 mM |
| CCC12CCc3c(c4ccccc4n3C)CCN(CC3OC31)C2 (stereo not drawn) | BV-2 | ELISA |  | 25 µM, added: LPS | baseline: LPS alone | IL-6 level | < 8.8% |

Some of these lines once more:
| Compound | target or system | test | test system | setting | how to read | measurement | value |
| --- | --- | --- | --- | --- | --- | --- | --- |
| [64Cu+2].c1ccc(CNCc2ccc(CN3CCCN4CCNCCCN(CC4)CC3)cc2)nc1 | CXCR4 |  | NOD/SCID mouse, U87 and U87-stb-CXCR4 xenografts, blood | iv, 90 min, no blocking dose, ex vivo |  | tissue uptake | 1.44 ± 0.1 %ID/g |
| COc1ccc2cc(NC(=O)c3cc(-c4cccnc4)nc4ccccc34)ccc2c1 | Cytochrome P450 3A4 (CYP3A4, Homo sapiens, UniProt P08684) | substrate, refers to: metabolite M1 | baculosomes |  |  | kcat/Km | 12800 M⁻¹ s⁻¹ |
